Measurements pooled from the literature.
Parts stem from different laboratories: compare values within a part only. Positions count from the first letter of the parent shown.

Series 1
Target: Phosphate system positive regulatory protein PHO4, full length, GST-tagged (PHO4, Saccharomyces cerevisiae, UniProt P07270, residues 1-312)
Technique: competition protein-binding microarray
Molecule type: double-stranded DNA, one strand shown
Matrix: in vitro
Tested at: 2 µM
Notes: whole 60-bp probe, lowest competitor level
Together with: Cbf1 competitor, 0.05 µM
Reading: higher = stronger binding
Construct (chain): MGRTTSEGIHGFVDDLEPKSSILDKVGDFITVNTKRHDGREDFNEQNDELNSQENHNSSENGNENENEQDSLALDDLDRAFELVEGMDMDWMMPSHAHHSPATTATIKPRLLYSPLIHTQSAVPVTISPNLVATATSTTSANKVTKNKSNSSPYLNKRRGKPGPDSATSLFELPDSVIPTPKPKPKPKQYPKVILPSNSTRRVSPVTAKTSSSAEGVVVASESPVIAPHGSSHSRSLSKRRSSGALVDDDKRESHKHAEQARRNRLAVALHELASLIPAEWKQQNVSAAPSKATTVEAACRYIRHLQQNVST
Strand	fluorescence intensity [a.u.]
CGGGGTTAAGTTTGGGACGTGGGTGGCTTGCAGCAGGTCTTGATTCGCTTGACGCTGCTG	7590
CGGGGTTAAGTTTGTCACAAAACTTGCTTGCAGCAGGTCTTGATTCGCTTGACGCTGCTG	3250
GTACTTTTATAAACACACGTGGAGGAACTTTGGTATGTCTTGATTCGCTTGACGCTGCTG	18000
GTCGACGATACATACAGAGCTGTTACAAAGTTCCATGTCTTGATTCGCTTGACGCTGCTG	3210
TGCGCAACAACTTGAGGCGTGGGTGTATGTCTAGAAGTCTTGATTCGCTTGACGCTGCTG	9370
CCCCTCCTCTCTCCGCACGATTTCTTCCTTTCATATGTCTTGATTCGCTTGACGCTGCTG	6730
GCCCTGGACGGAAAGCACGTGCTAAAGTGTTGCCCGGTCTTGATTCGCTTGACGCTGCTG	15200
TACGTCCAGCCAAATCACATGATACTGGCTTGAACAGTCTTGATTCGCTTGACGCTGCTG	5650
GAAATGGCAATGAAAGCCGTGCAATCAGAAACAAACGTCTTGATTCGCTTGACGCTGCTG	6270
AGGAAATCAAGACTGAACGTGTTGAAGATCAAAAGGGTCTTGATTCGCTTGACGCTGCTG	10100
CGTTCCACGGAAAAACACGTGCTTTGCGGGTATCCGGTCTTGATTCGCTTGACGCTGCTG	19300
AATTTATCTTGGCAAAACGTGGGTATGGAACTTTTGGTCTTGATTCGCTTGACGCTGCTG	15200
AAAGCGGTAATTTGACACGTGTTTTCACATATCTATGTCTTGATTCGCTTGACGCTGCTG	18700
CTTTCCCGATCTTGACGCGTGGGTGTAGCACATTTGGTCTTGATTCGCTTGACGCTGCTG	10100
GATTCTCTCCTCGACCACGGGGGGCAACTCTGCCTGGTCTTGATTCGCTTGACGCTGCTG	8400
TGGCCTAAGATGAAGGTCGTGCTTTTTGTTCAATTGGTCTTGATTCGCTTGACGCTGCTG	7680
CATACCCAACCTTGTCACACCACTTAAGATATTTGTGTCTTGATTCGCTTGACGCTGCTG	5070
AGAAAGTCTTGTAACCAGATGGTGACAAAAACTTGGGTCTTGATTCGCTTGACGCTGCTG	3130
CTTCTGTAAATTTGACCGGTGGGTGGACGCGCCCCGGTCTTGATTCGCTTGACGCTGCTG	3890
CTTTTTAGGGACCGTCACGGGAAGCCTGTTGGAGACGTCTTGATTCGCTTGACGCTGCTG	5060
CATACCCAACCTTGACCCGTGGGTGAAGATATTTGTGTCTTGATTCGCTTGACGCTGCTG	10900
AAAGCGGTAATTTGACACGTGGGTGCAGATATCTATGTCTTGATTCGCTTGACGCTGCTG	18200
CATACCCAACCTTGATAAGTGGGTGAAGATATTTGTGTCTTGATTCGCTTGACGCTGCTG	3840
CGTCCTAGTGATTGTTGTGTGGGTGCCATGAGGAAGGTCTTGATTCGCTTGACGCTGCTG	8220
ACCCAGGGGCGCCCCCACGTGGGGTCTGGGAGCGCGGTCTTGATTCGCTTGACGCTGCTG	20000

Series 2
Target: Interferon regulatory factor 7, full length, phosphomimetic (IRF7, Homo sapiens, UniProt Q92985, residues 1-503, S101K/S471D/S472D/S475D/S476D/S477D/S483D/S484D/S487D)
Technique: protein-binding microarray
Molecule type: double-stranded DNA, one strand shown
Matrix: in vitro
Tested at: 250 nM
Notes: 60-bp whole probe
Together with: salmon DNA 0.4 mg/ml
Reference: random background probes
Reading: higher = stronger binding
All sequences stand within: GCCTAGCAC … GTCTTGATTCGCTTGACGCTGCTG
Strand	log fluorescence
GACGGTCTGCTTTTCCTGACGTGCTAG	0.00722 z-score
AATGGAACAAATATGTTTATGTGCTAG	0.0138 z-score
TTAGGTGTCGACTTTCGGTTAGTGCTA	1.08 z-score
GACGCTATCGGGTTTCGAGACGTGCTA	2.5 z-score
GACGGACTGGACTATCAGGACGTGCTA	-0.721 z-score
TTAGAACTGAGACTGGACTAGTGCTAG	-0.206 z-score
GACGATCTCAGACTGGGGACGTGCTAG	-0.39 z-score
GACGGGCTGCTACTGCTGACGTGCTAG	-0.817 z-score
TCAGCTATTTTATATGCTACTGTGCTA	-0.245 z-score
TTAGGTTTCCTATCCCTTTAGTGCTAG	1.85 z-score
AGTGTTTCCCCTATTTAAGAGTGCTAG	2.52 z-score
GTTTTACTTTCTATCTCTGTGTGCTAG	5.96 z-score
TTAGGACTGCACACTGGGTTAGTGCTA	-0.388 z-score
GACGGTATCGGTTTGGGGACGTGCTAG	4.99 z-score
GGCGGTCTCGGACTGGGGACGTGCTAG	0.0841 z-score
GACGGTCTCGGTTTCGGGATGTGCTAG	8.42 z-score
TCATCTCTGTTTATGTCACTGTGCTAG	1.28 z-score
GACGGTTTCGGGATTCGGGACGTGCTA	7.53 z-score

Series 3
Target: ABI1, truncated, D143A, DHFR fusion (Arabidopsis thaliana)
Technique: DHFR PCA, deep sequencing
Matrix: yeast
Notes: methotrexate growth selection, single substitutions
Together with: (+)-ABA 4.8 µM
Reference: wild-type fitted maximum
Reading: higher = stronger binding
Parent: PYL1, truncated, DHFR fusion (Arabidopsis thaliana); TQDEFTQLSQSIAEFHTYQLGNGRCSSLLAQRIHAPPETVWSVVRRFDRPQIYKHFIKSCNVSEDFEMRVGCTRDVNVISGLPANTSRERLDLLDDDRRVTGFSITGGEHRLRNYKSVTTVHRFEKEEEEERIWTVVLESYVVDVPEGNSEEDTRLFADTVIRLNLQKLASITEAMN
Change	relative binding score [%]
I133N	81.9
G102L	-9.61
Q10L	53.2
T173R	1.35
D48I	-4.67
L8F	79.8
V121E	-4.08
S104G	5.01
E127Q	83.6
D65S	64.1
L20R	74.4
G148W	4.91
L94K	-6.83
H16P	11.2
I52T	77.1

Series 4
Target: UBE2S UBC core domain (UniProt Q16763)
Technique: yeast two-hybrid
Matrix: yeast
Notes: mostly zero background
Reference: not given
Reading: higher = stronger interaction
B1: TRIM22 RING domain (UniProt Q8IYM9); chain VKVDIEKEVTCPICLELLTEPLSLDCGHSFCQACITAKIKESVIISRGESSCPVCQTRFQPGNLRP
B2: TRIM37 RING domain (UniProt O94972); chain SVESIAEVFRCFICMEKLRDARLCPHCSKLCCFSCIRRWLTEQRAQCPHCRAPLQLRELVN
B3: TRIM26 RING domain (UniProt Q12899); chain PLRSLEEEVTCSICLDYLRDPVTIDCGHVFCRSCTTDVRPISGSRPVCPLCKKPFKKENIRP
B4: TRIM54 RING domain (UniProt Q9BYV2); chain SMDNLEKQLICPICLEMFSKPVVILPCQHNLCRKCANDVFQASNPLWQSRGSTTVSSGGRFRCPSCRHEVVLDRHGV
Sequence	lacZ reporter activity
B1 (TRIM22 RING domain)	0
B2 (TRIM37 RING domain)	0
YPEEVDDDLICHICLQALLDPLDTPCGHTYCTLCLTNFLVEKDFCPMDRKPLVLQHCKK (LNX1 RING domain (UniProt Q8TBB1))	0
B3 (TRIM26 RING domain)	0
AEADPLGRFTCPVCLEVYEKPVQVPCGHVFCSACLQECLKPKKPVCGVCRSALAPGVRAV (RNF114 RING domain (UniProt Q9Y508))	0
YCEMGSTFQLCKICAENDKDVKIEPCGHLMCTSCLTAWQESDGQGCPFCRCEIKGTEPII (CBLB RING domain (UniProt Q13191))	0
B4 (TRIM54 RING domain)	0

Series 5
Target: CREB3L2, bZIP domain (human)
Technique: DHFR protein complementation
Matrix: yeast
Notes: single substitutions, most at no-binding floor
Reference: wild-type JUN-FOS pair
Reading: higher = stronger binding
Parent: JUN, bZIP domain (human); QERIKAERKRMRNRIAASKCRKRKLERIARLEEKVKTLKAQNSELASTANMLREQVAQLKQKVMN; partner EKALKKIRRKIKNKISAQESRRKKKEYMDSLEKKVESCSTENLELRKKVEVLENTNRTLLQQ
Change	binding fitness [natural log]
V56F	-1.31
M51T	-1.54
L59P	-1.72
Q41M	-1.4
A29Y	-1.58
L45K	-1.44
I28D	-1.47
A46S	-1.53
E33L	-1.46
N42K	-1.55
E54V	-1.38
M51P	-1.54
S47A	-1.41
K39C	-1.52
